# Measurements pooled from the literature.
# Each numbered part is a random draw from the data of one study; scales do not carry over between parts. Substitutions count along the parent as printed.

# Series 1
# Target: CREB5, bZIP domain (human)
# Method: DHFR protein complementation
# Sample: yeast
# Setting: single substitutions, most at no-binding floor
# Baseline: wild-type JUN-FOS pair
# Direction: higher = stronger binding
# Starting sequence: JUN, bZIP domain (human); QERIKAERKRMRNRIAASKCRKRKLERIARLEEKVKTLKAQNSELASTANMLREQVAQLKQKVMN; partner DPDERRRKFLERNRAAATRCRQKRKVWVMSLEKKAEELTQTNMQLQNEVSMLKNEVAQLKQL
Variant,binding fitness [natural log]
T48H,-0.412
T48M,-0.209
T37E,-0.192
T48Y,-0.311
K36G,-0.534
Q41D,-0.649
Q58W,-0.318
E33W,-0.609
T37R,-0.24
S47F,-0.359
L59H,-1.26
L52W,-1.28
E32N,-0.653
R53D,-1.33
E44S,-0.457

# Series 2
# Target: Histone acetyltransferase KAT6A, winged helix 1, GST fusion (KAT6A, Homo sapiens, UniProt Q92794, residues 1-85)
# Method: protein binding microarray
# Form: double-stranded DNA, one strand shown
# Sample: in vitro
# Tested at: not given
# Setting: 8-mer, flanks averaged, mean of 2 arrays, mostly near background
# Baseline: not given
# Direction: higher = stronger binding
# Target sequence (chain): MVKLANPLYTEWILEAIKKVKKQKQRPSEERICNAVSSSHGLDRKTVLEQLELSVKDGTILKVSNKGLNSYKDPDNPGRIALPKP
Strand,E-score
AGCAAACC,-0.17
ATCTATTG,-0.163
AATAGGAG,-0.105
AGACGCAT,0.0348
CACCTTCC,-0.0702
GTCTATAA,-0.134
ATCAAAGA,-0.282
AGCGAACA,0.0021
CATTGTAC,0.0402
AGAATTGA,-0.18
GTAATAGA,-0.0286
AGGCAGAC,-0.152
ATAAGGAA,-0.175
TCTAGGCA,-0.21
ACGAGACT,-0.186
ATCGAGGA,-0.145
CAGGTGGG,-0.251
AATTATCA,-0.105
CGTTCTTC,0.0516
GCCACGGC,0.373
AGAATCTA,-0.139

# Series 3
# Target: CCNB3, cyclin fold, Cln2 fusion (human)
# Method: yeast growth competition, sequencing
# Sample: yeast
# Setting: weak parent motif
# Baseline: not given
# Direction: higher = stronger binding
# Starting sequence: E2F1 docking peptide (human); PPVKRRLDLETDH
Variant,normalised enrichment score
K4R,0.474
R5Y,0.153
R5L,0.142
T11D,0.0366
D12L,0.45
K4E,0.183
D12G,0.39
D8N,0.601
P2N,0.18
P2G,0.464
T11K,0.466
P2L,0.142
T11I,-0.0198
H13W,0.203
P2T,0.284
R5P,-0.432

# Series 4
# Target: ABI1, truncated, D143A, DHFR fusion (Arabidopsis thaliana)
# Method: DHFR PCA, deep sequencing
# Sample: yeast
# Setting: methotrexate growth selection, single substitutions
# Together with: (+)-ABA 1.4 µM
# Baseline: wild-type fitted maximum
# Direction: higher = stronger binding
# Starting sequence: PYL1, truncated, DHFR fusion (Arabidopsis thaliana); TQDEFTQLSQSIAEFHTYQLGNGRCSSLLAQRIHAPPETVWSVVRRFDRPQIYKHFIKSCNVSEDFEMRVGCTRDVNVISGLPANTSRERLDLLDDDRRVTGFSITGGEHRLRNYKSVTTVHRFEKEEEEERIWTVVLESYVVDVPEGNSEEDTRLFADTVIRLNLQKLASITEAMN
Variant,relative binding score
V161F,36.1%
W41N,-14.5%
E38K,16.1%
G23N,54.2%
R123G,79.7%
E128W,31.6%
T154G,-14.9%
F157L,26.4%
S150K,3.34%
P146Q,18.6%
N114D,10.1%
V62I,38.6%
E139F,-22%
V62K,-12.7%
Q167I,19.4%
E152T,32.3%

# Series 5
# Target: Centromere-binding protein 1, full length, N-terminal tag (CBF1, Saccharomyces cerevisiae, UniProt P17106, residues 1-351)
# UniProt P17106, sequence (whole entry, looked up): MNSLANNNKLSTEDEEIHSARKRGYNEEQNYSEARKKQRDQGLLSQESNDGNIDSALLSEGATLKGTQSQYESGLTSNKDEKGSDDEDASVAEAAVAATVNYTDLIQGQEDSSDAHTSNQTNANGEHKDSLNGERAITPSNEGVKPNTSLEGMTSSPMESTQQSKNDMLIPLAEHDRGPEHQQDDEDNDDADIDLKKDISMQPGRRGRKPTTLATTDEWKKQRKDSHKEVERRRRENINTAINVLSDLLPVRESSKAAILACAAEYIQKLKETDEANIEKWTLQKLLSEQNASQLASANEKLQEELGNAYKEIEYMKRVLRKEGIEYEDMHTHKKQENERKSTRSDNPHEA
# Method: protein-binding microarray
# Form: double-stranded DNA, one strand shown
# Sample: in vitro
# Tested at: 0.8 µM
# Setting: whole 60-bp probe, no competitor
# Direction: higher = stronger binding
# Shared flanks, not repeated: … GTCTTGATTCGCTTGACGCTGCTG
Strand,fluorescence intensity [a.u.]
CTAATTGCTGCATTTCCCACCACGTCCTGGTGGTTC,486
GAAACCGATAATAATAATCACGTTTATATCACGTAG,1480
GAATACGGGAACGACCATCACGTTTCTTTTATGTAG,1160
GAAGAAATGACGTGCCAGGTGATTTTTCCATTCTAG,617
GAATGTAGCCTTGATCATCAGAGTTATATTTCTTAG,512
CTAGTGCCATCCGGTCACATGACTACACCACGTTTC,11800
CTAATATATCTCCGTCAGGTTCGATCCAGACTCTTC,528
CTACAGTCTGTACGTGTTGTTGTGGCTGATACATTC,510
GAATCCGAGCTTCGCTGACACGTGGGAGGTGGGTAG,3320
GAACCCGCTTCACGGCACATGCATGCATCAATGTAG,723
GAAAACCCTAAGAAGCACGTGATACAAACCTGTTAG,13200
CTAGCCAAGAAAGAGCACGTGTAAAAATGGAATTTC,7570
GAAATGACCCTATTGCAGGTGATCCTGATGTAGTAG,689
GAATAGAGAAAATCTGATGCAGCAAGATAGCAATAG,544
CTACGTATACGTTTAAGTGTGATTGCACCTATTTTC,503
TGTACGAAGCTATGGAACGTGTGTATAGTAGTTAGG,530
GAAAAGTTACATATACACGTTATACATGTATAGTAG,545
CTAAAGATATAATATCACGAATTTGTTACTAATTTC,538
GAATTTGACATTGTTCACATGATTGTTGCTCTGTAG,924

# Repeated from above (series 2):
Strand,E-score
TCTAGGCA,-0.21
ACGAGACT,-0.186
ATCGAGGA,-0.145
CAGGTGGG,-0.251
AATTATCA,-0.105
CGTTCTTC,0.0516
GCCACGGC,0.373
AGAATCTA,-0.139
